Results pooled from the literature.
Every numbered part comes from another study and shows a few of its results, in no order.

Series 1 — method: protein binding microarray; molecule type: double-stranded DNA, one strand shown; medium: in vitro; tested at: not given; reference: not given; reading: higher = stronger binding; endpoint: E-score
Target: Histone acetyltransferase KAT6A, both winged helices, GST fusion (KAT6A, Homo sapiens, UniProt Q92794, residues 1-181)
Notes: 8-mer, flanks averaged, mean of 2 arrays, mostly near background
Residues (chain): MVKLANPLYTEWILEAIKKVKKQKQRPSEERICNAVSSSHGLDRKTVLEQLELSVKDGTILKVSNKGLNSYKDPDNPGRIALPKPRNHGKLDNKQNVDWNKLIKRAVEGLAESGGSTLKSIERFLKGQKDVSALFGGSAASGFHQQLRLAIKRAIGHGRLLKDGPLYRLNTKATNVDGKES
ATTGCCAA: -0.178
ACTTGTCG: 0.025
GCGCGGAC: 0.344
ATGTCGTA: -0.163
TAAATTGA: -0.148
CAATGAAC: 0.0197
AACGGAAC: 0.191
CAAGGACA: -0.119
GACACAAA: -0.0113
CCGTCGAG: 0.209
CAAATACG: -0.00872
GAGACATA: -0.139
AGGAAGAT: -0.165
CAATAATA: -0.123
CCCCCTTA: -0.222
ACTTTCGA: -0.0224
AAGAGTCT: -0.155
CGAGCTAC: 0.0106
CCAAGGGA: -0.236
ATCATGAT: -0.18
GGAGTTAC: -0.0374
CGCTACTC: 0.228
CTTGCCAC: -0.0838
CGATTAAC: 0.0971
AGACGCTG: -0.0188

Series 2 — method: protein-binding microarray; molecule type: double-stranded DNA, one strand shown; medium: in vitro; tested at: 2540 nM top; notes: 60-bp whole probe; added: salmon DNA 0.4 mg/ml; reference: random background probes; reading: higher = stronger binding; endpoint: fitted relative affinity; all sequences stand within: GCCTAGCAC … GTCTTGATTCGCTTGACGCTGCTG
Target: Interferon regulatory factor 3, full length, phosphomimetic (IRF3, Homo sapiens, UniProt Q14653, residues 1-427, S386D/S396D/S398D/S402D/T404D/S405D)
Target sequence (chain): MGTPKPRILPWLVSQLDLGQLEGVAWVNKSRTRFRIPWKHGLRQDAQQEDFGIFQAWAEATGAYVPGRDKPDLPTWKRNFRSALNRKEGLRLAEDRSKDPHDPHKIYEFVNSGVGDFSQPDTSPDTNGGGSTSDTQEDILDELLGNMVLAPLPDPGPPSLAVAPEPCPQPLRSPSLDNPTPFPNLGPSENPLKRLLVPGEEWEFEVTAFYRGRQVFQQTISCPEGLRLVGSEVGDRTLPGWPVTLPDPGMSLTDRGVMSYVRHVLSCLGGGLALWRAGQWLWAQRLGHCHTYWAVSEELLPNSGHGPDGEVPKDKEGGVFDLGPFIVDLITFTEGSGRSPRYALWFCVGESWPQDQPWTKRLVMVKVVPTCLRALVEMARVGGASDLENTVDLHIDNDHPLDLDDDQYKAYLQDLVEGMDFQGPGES
CTAGGTTTCGGTTTCGGTTAGTGCTAG: 11.6 z-score
GACGGTTTCGTTTTCGGGACGTGCTAG: 8.58 z-score
GACGAACTGACTCTCGAGACGTGCTAG: -0.0895 z-score
TTAGAACTGAGTACCGATTAGTGCTAG: 0.62 z-score
GACGATTTCAGTATCGTGACGTGCTAG: 2.22 z-score
TTAGATTTCGGGTGTCGATTAGTGCTA: 1.02 z-score
TGGGATTTTCCCATGAGTCTGTGCTAG: -0.0116 z-score
TTAGGTCTCGGACTGGGTAAGTGCTAG: -0.266 z-score
TCAGATTTCAGTATCGATTAGTGCTAG: 2.97 z-score
TCAGTCTTCAGGTTCTCACTGTGCTAG: 0.444 z-score
GACGGTTTCGACCATCGGGACGTGCTA: 1.92 z-score
TTAGATCTCATTTTCGATTAGTGCTAG: 2.37 z-score
TCAGATTTCTTCCCTGTGACTGTGCTA: 0.525 z-score
TTAGGACTGCTTTACCTTTAGTGCTAG: 0.165 z-score
TCATTTTTTTTTTTGGAACTGTGCTAG: 1.34 z-score
TCCCCTCTAGGTTCTCTGAAAGTGCTA: 0.252 z-score
GACGGTATCGACTTTCGGTACGTGCTA: 2.12 z-score
TTAGGACTGCGGTATCGGTTAGTGCTA: 1.1 z-score
GACGGTCTCCTACTGCTGACGTGCTAG: 1.13 z-score
TCAACTCTGAACCTTGGACTGTGCTAG: -0.199 z-score
TAGACTCTGTGCTTTCCTCGTGTGCTA: -0.392 z-score
TCAGTTTTAAATTCTAAACTGTGCTAG: 2.64 z-score
GACGGTTTCGGACTGGCGACGTGCTAG: 4.72 z-score
GACGATATCGGGTACCGAGACGTGCTA: 0.0604 z-score
TCCATGCTGGCTTTTATGCGGTGCTAG: -0.783 z-score

Series 3 — method: RNA Bind-n-Seq; molecule type: RNA; medium: in vitro; tested at: not given; reference: input RNA pool; reading: higher = stronger binding; endpoint: bound/input enrichment
Target: RING finger protein unkempt homolog, zinc fingers 1-6, GST-SBP tag (UNK, Homo sapiens, UniProt Q9C0B0, residues 30-357)
Sequence of UniProt Q9C0B0 (30-357, looked up): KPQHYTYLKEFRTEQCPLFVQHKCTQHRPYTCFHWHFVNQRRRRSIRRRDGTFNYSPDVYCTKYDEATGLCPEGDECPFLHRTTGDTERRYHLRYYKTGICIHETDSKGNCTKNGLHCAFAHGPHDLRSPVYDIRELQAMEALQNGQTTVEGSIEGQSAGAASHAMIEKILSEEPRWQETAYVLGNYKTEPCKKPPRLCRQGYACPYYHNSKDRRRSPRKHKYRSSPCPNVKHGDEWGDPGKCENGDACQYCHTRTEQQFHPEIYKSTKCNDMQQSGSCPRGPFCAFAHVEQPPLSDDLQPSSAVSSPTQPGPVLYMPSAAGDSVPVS
Notes: RNA with constant flanks, human and mouse sites, ends assumed
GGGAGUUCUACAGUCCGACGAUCCAAAGAGUGAACAAACAAGUUGGAGAUAUCUUCAGUAAUCCAGAAACAGUCCUGGCUAAACUUAUUCAAAAUGUAUUUGAAAUCAAACUACAGAGUUUUGUGAAAGAGCAGUUAGAAGAACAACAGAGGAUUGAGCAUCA: 0.173 ratio
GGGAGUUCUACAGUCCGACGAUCGCUGUAAAUACUCUACUAAGUUUGGAAGAGUCUUCAGAACUUCUUCAUCUGGUUCCUGUGGGACGAGUGAAGCACUUAGUGUUGACCUUUCCAACGGAGCCAUCUGUGUUGCUGUUGGCCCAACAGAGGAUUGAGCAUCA: 0.143 ratio
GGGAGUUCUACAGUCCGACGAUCUGUGUAUAGGGGGAAGGGGUUCUUUACAUUUUCUGUGGUUUGUGCUUUUUUCUUCAGUAAAUUAGUUCCCACCAUCGCAUGCCCAGGGGCCACUACCUGGCAUUAUCGCAUGCUGGGAUCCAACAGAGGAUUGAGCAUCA: 0.664 ratio
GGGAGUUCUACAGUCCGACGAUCUGCUUGAGGCCCCUUACAAGAAGGAUGAGAACAAGUUGAACAGUGCUAACGGCCAUGAAGAACGUAGCAAAAAGAGAAAAAAAAGCAAGAGCAGAAGUCGUAGUCAUGAGAGAAAAAGAACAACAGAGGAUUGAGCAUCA: 0.891 ratio
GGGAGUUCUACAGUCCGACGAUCCCAGACAAGAUUGACUAUGCCUCGCUAGACCCACUCAACAUCAAGCAGAACAACAAGCAGGCCUUCGAUGGCUUCGCGGCUCUGGGCGUGUCGCGGCUGCUGGAGCCCGCGGACAUGGUGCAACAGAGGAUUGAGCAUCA: 0.205 ratio
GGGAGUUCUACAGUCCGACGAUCUAUGGUGGGGUUGGUAAUUCAUCGGUUUCUGGUCAUGGCAUUCUCCCAAGCUAUCAGGAACUAGUAGAAGAUCGUUUCAGGAAACCUCAUGCUUUUGCUGUACCUGGACAGUCAUAUCAGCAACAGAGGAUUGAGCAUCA: 0.46 ratio
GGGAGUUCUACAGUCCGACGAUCGCAAGUAACAAUCGCUUAUUCCAGCUCGUAAUGAAGGGCCUACUUUAUGAAUGCUGCGUAGAAUUUUGUCAGAGUAAAGCAACUGGUGAAGAAAUUACAGAAAGUGAAGUCCUUCUUGGCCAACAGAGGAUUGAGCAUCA: 0.271 ratio
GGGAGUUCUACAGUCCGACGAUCACUUAGCAAGGGCUCUGAAAUGACAAAGAGAACGAGCACCACAAAUGAGAACAGGAUCAUUUUAGUAAAUACAGCUUUAUCCCAAAAGCUUUAACUGUAUUGGGAAAACUUAAAAAAUAGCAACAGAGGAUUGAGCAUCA: 28.4 ratio
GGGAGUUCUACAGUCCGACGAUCGAAGAUGAAGCCAAUAUAGCCUGGAAGUAUUACAAGUUCCCAAAGAAAAAAGAUGUAGAGUUUUUACCACCUCAACUUCCAAGUGAUAAAUUCAAGGAUGAUCCAGUUGGACCUUUUGGACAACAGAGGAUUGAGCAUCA: 0.541 ratio
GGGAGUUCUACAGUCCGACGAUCCCCUGUUCCGUUUUGGUUGAUGGGUGUUUGGGAGGGGGCUGCGGGGGAUACUUUUUUUUUUAGUUCUUCUUUACCCUUAAGGUCAGCCCAUCACAAAAACAGAAACCGUUAAAUACCCCCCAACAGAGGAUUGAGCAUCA: 0.806 ratio
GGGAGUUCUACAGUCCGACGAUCAUAUUUGUAAAUAAAGGUAGAAACAUUGGGAUCCACCCCUGCAGAACUUACUGUACAGUUUAGUUGAAGUGUAGAAAGGAAUUGUCAGCUCAUCGUGACUGAUACAUAGUGAAGAAAGUACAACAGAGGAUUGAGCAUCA: 9.39 ratio

Series 4 — method: aptamer microarray, sandwich; molecule type: DNA with 2'F-ANA; medium: in vitro; tested at: 200 nM; added: Cy3 exosite-II aptamer, 400 nM; reading: higher = stronger binding; endpoint: mean fluorescence intensity; strand: GGTTGGTGTGGTTGG
Target: Prothrombin, mature alpha-thrombin (F2, Homo sapiens, UniProt P00734)
Notes: whole 15-mer aptamer, many near background
2'F-ANA at 1 3 6 7 9 10 11 12: 94.3 a.u.
2'F-ANA at 3 4 7 11 12 13: 708 a.u.
2'F-ANA at 3 4 5 6 9 13 15: 57.9 a.u.
2'F-ANA at 2 4 5 8 10 11: 68.8 a.u.
2'F-ANA at 2 3 4 6 7 10 11: 206 a.u.
2'F-ANA at 1 5 11 14: 43.9 a.u.
2'F-ANA at 1 2 3 5 7 8 9 10: 47 a.u.
2'F-ANA at 2 8 12 13 14: 207 a.u.
2'F-ANA at 1 2 6 10 15: 54.4 a.u.
2'F-ANA at 5 6 7 8 12 13 14 15: 49.4 a.u.
2'F-ANA at 2 3 5 7 9 13 14: 65.7 a.u.
2'F-ANA at 1 2 4 5 6 10 11 13 14: 62.5 a.u.
2'F-ANA at 2 3 8 11 15: 665 a.u.
2'F-ANA at 1 2 4 5 7 9 15: 98.3 a.u.
2'F-ANA at 1 2 9 10 11 12 13 14: 50.1 a.u.
2'F-ANA at 1 2 4 6 9 11 13 14 15: 50.6 a.u.
2'F-ANA at 1 6 9 14 15: 54 a.u.
2'F-ANA at 3 4 7 8 9 13: 563 a.u.
2'F-ANA at 1 3 5 7 9 11 13 14: 46.9 a.u.
2'F-ANA at 1 2 4 11 12 15: 203 a.u.
2'F-ANA at 1 4 5 8 9 11 12 13 15: 80.8 a.u.
2'F-ANA at 1 2 7 8 9 10: 53.9 a.u.
2'F-ANA at 3 4 5 7 12 13 14 15: 55.4 a.u.
2'F-ANA at 5 6 7 8 9 11 12 14 15: 51 a.u.
2'F-ANA at 2 4 5 7 10 11 14: 50 a.u.
